Assay results of several laboratories.
Numbered parts are unrelated; each lists some results of a single study. Positions count from the first letter of the parent shown.

Set 1
Target: Eukaryotic initiation factor 4A-I (EIF4A1, Homo sapiens, UniProt P60842, residues 1-406, full length assumed)
UniProt P60842, sequence (whole entry, looked up): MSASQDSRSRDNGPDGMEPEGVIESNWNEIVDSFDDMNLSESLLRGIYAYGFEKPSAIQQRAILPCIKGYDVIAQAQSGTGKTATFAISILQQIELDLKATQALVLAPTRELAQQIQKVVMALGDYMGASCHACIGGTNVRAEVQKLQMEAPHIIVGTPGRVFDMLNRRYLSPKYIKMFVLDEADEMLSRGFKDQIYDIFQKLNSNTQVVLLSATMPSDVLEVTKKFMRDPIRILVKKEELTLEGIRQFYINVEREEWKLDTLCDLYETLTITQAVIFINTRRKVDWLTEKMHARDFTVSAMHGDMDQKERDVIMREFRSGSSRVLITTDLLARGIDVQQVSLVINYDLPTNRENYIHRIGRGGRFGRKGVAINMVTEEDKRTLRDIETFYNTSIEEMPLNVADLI
Method: RNA Bind-n-Seq
Form: RNA
Matrix: in vitro
Tested at: 15 pmol
Setting: 4-mer, random 30-nt RNA, single round
Added: 3 µM RocA, 2 mM AMP-PNP
Baseline: mean of 4-mers
Reading: higher = stronger binding
Quantity: 4-mer enrichment Z-score
UCGG: -0.163
GGAU: 0.936
ACAG: -0.439
UUCC: -1.21
ACGC: -0.623
GCCU: -0.802
UUUC: -0.917
GGUC: -0.506

Set 2
Target: Interferon regulatory factor 7, full length, phosphomimetic (IRF7, Homo sapiens, UniProt Q92985, residues 1-503, S471D/S472D/S475D/S476D/S477D/S483D/S484D/S487D)
UniProt Q92985, sequence (whole entry, unmodified, looked up): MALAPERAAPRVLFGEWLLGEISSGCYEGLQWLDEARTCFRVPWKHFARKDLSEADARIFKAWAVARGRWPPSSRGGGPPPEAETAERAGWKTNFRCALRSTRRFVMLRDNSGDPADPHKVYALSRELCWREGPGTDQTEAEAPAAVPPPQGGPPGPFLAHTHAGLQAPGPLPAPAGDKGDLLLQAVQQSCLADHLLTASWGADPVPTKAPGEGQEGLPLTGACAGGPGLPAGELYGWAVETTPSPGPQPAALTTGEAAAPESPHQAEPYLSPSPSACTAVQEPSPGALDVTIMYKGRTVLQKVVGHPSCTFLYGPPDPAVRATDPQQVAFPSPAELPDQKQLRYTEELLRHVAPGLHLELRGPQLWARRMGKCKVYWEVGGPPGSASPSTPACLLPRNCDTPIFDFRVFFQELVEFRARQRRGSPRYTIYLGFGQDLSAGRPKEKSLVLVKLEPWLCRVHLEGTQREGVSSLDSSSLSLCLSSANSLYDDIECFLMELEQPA
Method: protein-binding microarray
Form: double-stranded DNA, one strand shown
Matrix: in vitro
Tested at: 2200 nM top
Setting: 60-bp whole probe
Added: salmon DNA 0.4 mg/ml
Baseline: random background probes
Reading: higher = stronger binding
Quantity: fitted relative affinity
All sequences stand within: GCCTAGCAC … GTCTTGATTCGCTTGACGCTGCTG
GACGATATCGGGACTGGAGGCGTGCTA: -0.419 z-score
GACGGTATACTACTGCTGACGTGCTAG: 0.422 z-score
ACATTCCATGAGCCCACTGGGTGCTAG: 0.795 z-score
GACGGTCTCGGACTGGGGCCGTGCTAG: -0.766 z-score
TAAGAACTGGGGTATCGATTAGTGCTA: -0.17 z-score
TATCAGGGCATCCCCTTGAAGTGCTAG: -0.609 z-score
GAGGGTATCCTTCTCCTGACGTGCTAG: 0.145 z-score
TAAGGTCTCGGACTGGGTTAGTGCTAG: -0.347 z-score

Set 3
Target: ABI1, truncated, D143A, DHFR fusion (Arabidopsis thaliana)
Method: DHFR PCA, deep sequencing
Matrix: yeast
Setting: methotrexate growth selection, single substitutions
Added: (+)-ABA 710 µM
Baseline: wild-type fitted maximum
Reading: higher = stronger binding
Quantity: relative binding score
Parent: PYL1, truncated, DHFR fusion (Arabidopsis thaliana); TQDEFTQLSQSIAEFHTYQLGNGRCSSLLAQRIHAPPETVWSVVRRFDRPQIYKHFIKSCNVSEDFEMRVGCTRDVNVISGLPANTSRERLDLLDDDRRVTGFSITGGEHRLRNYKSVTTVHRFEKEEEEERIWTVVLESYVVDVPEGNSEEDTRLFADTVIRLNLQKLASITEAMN
G107V: 39.5%
D95Q: 90.7%
R123G: 105%
P146Q: 64.4%
L93M: 87.2%
G23N: 104%
V62I: 95.2%
V161F: 95.6%

Mixed results
ATEDPSSGY  z-score of log IC50 (HLA class I histocompatibility antigen, A alpha chain, allele A*80:01 (Homo sapiens, UniProt P04439); peptide-MHC binding; peptide; direction not given): 0.38

Excerpt of the above (set 2):
ACATTCCATGAGCCCACTGGGTGCTAG: 0.795 z-score
GACGGTCTCGGACTGGGGCCGTGCTAG: -0.766 z-score
TAAGAACTGGGGTATCGATTAGTGCTA: -0.17 z-score
TATCAGGGCATCCCCTTGAAGTGCTAG: -0.609 z-score
